Assay results gathered from unrelated publications.
A part holds a random share of what one study measured. Changes are numbered by the printed parent chain.

Block 1 — target: CCNA1, cyclin fold, Cln2 fusion (human); technique: yeast growth competition, sequencing; matrix: yeast; notes: weak parent motif; baseline: not given; direction: higher = stronger binding
Parent: GMNC docking peptide (human); KNAKRNLSSEFAN; partner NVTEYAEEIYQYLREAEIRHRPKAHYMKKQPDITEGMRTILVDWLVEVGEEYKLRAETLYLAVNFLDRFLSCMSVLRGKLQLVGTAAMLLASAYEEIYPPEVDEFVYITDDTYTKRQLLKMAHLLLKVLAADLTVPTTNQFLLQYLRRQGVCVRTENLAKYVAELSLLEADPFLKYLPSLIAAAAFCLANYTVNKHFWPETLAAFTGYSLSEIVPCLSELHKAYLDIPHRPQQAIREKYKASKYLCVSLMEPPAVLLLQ
Change	normalised enrichment score
KNAKRNLSSEQAN [F11Q]	0.288
KNAKRNESSEFAN [L7E]	0.454
KNAKGNLSSEFAN [R5G]	0.00981
KNAGRNLSSEFAN [K4G]	0.549
KNAKRNLSSEFDN [A12D]	0.123
KNAKRNLSSEFMN [A12M]	0.233
KNMKRNLSSEFAN [A3M]	0.257
KNAKRNLSSEFQN [A12Q]	0.52
KNAKRNLFSEFAN [S8F]	0.482
KNAKRMLSSEFAN [N6M]	0.253
KNAKRNYSSEFAN [L7Y]	-0.0734
KNAKRALSSEFAN [N6A]	-0.0316
KNAKRNLSFEFAN [S9F]	0.602
KNAKFNLSSEFAN [R5F]	-0.0372
KNAKRNLSSEFSN [A12S]	0.256
KFAKRNLSSEFAN [N2F]	0.875
KNVKRNLSSEFAN [A3V]	1.19

Block 2 — technique: RNA Bind-n-Seq; form: RNA; matrix: in vitro; concentration: not given; baseline: input RNA pool; direction: higher = stronger binding
Target: RING finger protein unkempt homolog, zinc fingers 1-6, GST-SBP tag (UNK, Homo sapiens, UniProt Q9C0B0, residues 30-357)
Chain of UniProt Q9C0B0 (30-357, looked up): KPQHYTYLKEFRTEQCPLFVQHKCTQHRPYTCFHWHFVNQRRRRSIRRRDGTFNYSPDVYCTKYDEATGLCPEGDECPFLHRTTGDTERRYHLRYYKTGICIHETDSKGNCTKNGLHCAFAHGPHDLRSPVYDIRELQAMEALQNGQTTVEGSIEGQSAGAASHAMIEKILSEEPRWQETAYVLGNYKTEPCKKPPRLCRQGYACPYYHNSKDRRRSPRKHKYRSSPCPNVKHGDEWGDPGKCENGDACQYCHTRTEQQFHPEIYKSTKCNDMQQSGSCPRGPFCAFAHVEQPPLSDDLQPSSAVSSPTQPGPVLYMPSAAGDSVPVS
Notes: RNA with constant flanks, human-mouse chimeric sites, ends assumed
Oligonucleotide	bound/input enrichment
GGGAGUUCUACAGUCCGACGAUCGCACUUCUCAAAUACUGGCCAAAGACUCACAGUCCAAAAGAAGUAAUGUUCUUAAAUGAAUUAGAAGAAAUUUUAGAUGUCAUUGAACCAUCAGAAUUUGUGAAGAUCAUGGAGCCUCUUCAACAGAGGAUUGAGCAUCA	0.22 ratio
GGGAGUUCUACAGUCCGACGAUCGGUGGGGUGGUCAUUGCGCCAAUUGAGGCUGAUUUUCAUGAGUCGCCUUCAAAACUCUCGUGUAGGGUUGACAAUGUAAGGGGUGGGGGGAUCCAGCUUAUUCUUUUAUUUUCAAGUCCACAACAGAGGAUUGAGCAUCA	0.736 ratio
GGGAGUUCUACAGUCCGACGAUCUGUGCCCCACAAGAUCCUACCUGAGUGGCAGCUGAAGUUGACUCCCUCUCCUUGCCUGAACCCCCCCCCACUGCCCCCCCAUCCCCCAGUGUCGGCUGAGAUGUUGCCAGCAGACAGUUCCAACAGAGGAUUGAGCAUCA	1.92 ratio
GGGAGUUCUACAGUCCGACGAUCAGAUUCCCUCUCUUAAAACCUCCUCCGAAGUUGGAGUCUCUUACAGAUGCCUCAUCCCCUGUUAGUAUUUUAGUUUGGACCACCCAGCCUUGGACAAUUCCCGCCAACCAGGCAAUUUGCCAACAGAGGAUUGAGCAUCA	2.17 ratio
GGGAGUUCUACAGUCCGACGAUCGAUGAUAAUCACACAAACAAGUCACUGUUACAUGACCAGAGUUGUACUUCUUUUCCUGAUUAAUAUUCUCCCUGGAACCACUGGUCAAGGGGAAUCAAGACGACAAGAACCUGGGGACUUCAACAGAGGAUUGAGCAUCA	0.213 ratio
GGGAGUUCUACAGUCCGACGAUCGGGACUGAUUCAUCCCAAGGACAGGCAACCCCAUUUGGUGUUUGGAAUGAUGACAGUAUGGAAGGGCCUAGUCAAAAUGUUGAAGCUGAGUCAAUUCAGGAUGCCAUGAGUAUGGAAGAGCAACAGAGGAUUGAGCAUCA	0.284 ratio
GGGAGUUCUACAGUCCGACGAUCGUGACUGGUGUUAAGAUUUCCCCUCAGCAAAGAAGUGCAGUAGUCACCAUAAUUCCAUCUGUGGUGAGUGCCAGUCAGAUAAAAGAGCUGGUUCCAGACCUCAGUUUAGACAUGGGAACUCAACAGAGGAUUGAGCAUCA	0.253 ratio
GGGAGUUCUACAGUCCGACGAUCCACUCGAGGGCUGCCGUUUUCUGUUUCUCCCUGGGCUGCGGAAAGCCAGGCGGUUUUAUCUAGCUUAUACAAGGCUGCUGGUGUUCCCUCUUUUUUUCCACGAGGGUGUUUUUGGCUGCACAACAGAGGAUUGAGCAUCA	1.46 ratio
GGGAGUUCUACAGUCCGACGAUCGGAAGCACAAUGAUGGAGAUUGAUGGUGACAAAGGCAAACAAGGCGGGCCCACCUACUACAUAGACACCAAUGCCCUCCGCGUGCCCAGGGAGAACAUGGAGGCCAUCUCACCACUCAAGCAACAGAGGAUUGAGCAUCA	0.203 ratio
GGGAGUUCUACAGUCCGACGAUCGAGUCGAGCAAACUUGAAACAAUUCGUUUUACAAAAACCUCAGUGUUCACUUGCUUGGCGAUAGCAUUGGGGUUUUAUAGGUUCUGGAAGGAGAACUGACGAUGAUGCUGCCGCUGCUGCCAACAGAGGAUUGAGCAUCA	0.241 ratio
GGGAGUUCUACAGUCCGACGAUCGUAUACGGUUAUCGAGGAAAGGACUGUAGAGCGAAUGUUUACCUUCUUCCCACAGGGGAGAUAGUUUAUUUUAUCGCCUCAGUGGUAGUACUAUUUAAUUAUGAGGAGAGGACUCAGCGACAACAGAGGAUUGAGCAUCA	3.85 ratio

Block 3 — technique: protein binding microarray; form: double-stranded DNA, one strand shown; matrix: in vitro; concentration: not given; baseline: not given; direction: higher = stronger binding
Target: Histone acetyltransferase KAT6A, both winged helices, GST fusion (KAT6A, Homo sapiens, UniProt Q92794, residues 1-181)
Notes: 8-mer, flanks averaged, mean of 2 arrays, mostly near background
Construct (chain): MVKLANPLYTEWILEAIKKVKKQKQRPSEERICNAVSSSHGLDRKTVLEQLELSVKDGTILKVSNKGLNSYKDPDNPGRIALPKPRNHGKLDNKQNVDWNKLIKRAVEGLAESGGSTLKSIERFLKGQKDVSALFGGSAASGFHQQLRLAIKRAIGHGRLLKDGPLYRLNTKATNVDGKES
Oligonucleotide	E-score
AACGCAGG	0.052
CAAATTAC	-0.108
CGTCTCGC	0.208
ATAGACGG	0.0924
GGTCCAAC	-0.0587
CAAGCGTG	0.0829
TCAAACCA	0.0624
ACTGCAAC	-0.101
TATGATAA	-0.0297
CCTGGAAG	-0.166
CGCTGCTA	0.0308
TGATGGCA	-0.157
AAACTTAA	-0.0306
CAGATTAC	-0.0313
CTCCCGAG	-0.0658
AATGTCAC	-0.0372
GATCTCAA	0.0636
GTCTTTTA	-0.0839
CATGGCGA	-0.0636
AGGGATGA	-0.238
CGATCAAA	-0.0723
AATGACCT	-0.108
CTGAACAC	-0.016
AGTCTCGC	-0.0414
GGGGGGGA	-0.141

Block 4 — technique: universal PBM; form: double-stranded DNA, one strand shown; matrix: in vitro; concentration: 600 nM; direction: higher = stronger binding
Target: Sal-like protein 4, full length isoform A (SALL4, Homo sapiens, UniProt Q9UJQ4, residues 1-1053)
Chain of UniProt Q9UJQ4 (whole entry, looked up): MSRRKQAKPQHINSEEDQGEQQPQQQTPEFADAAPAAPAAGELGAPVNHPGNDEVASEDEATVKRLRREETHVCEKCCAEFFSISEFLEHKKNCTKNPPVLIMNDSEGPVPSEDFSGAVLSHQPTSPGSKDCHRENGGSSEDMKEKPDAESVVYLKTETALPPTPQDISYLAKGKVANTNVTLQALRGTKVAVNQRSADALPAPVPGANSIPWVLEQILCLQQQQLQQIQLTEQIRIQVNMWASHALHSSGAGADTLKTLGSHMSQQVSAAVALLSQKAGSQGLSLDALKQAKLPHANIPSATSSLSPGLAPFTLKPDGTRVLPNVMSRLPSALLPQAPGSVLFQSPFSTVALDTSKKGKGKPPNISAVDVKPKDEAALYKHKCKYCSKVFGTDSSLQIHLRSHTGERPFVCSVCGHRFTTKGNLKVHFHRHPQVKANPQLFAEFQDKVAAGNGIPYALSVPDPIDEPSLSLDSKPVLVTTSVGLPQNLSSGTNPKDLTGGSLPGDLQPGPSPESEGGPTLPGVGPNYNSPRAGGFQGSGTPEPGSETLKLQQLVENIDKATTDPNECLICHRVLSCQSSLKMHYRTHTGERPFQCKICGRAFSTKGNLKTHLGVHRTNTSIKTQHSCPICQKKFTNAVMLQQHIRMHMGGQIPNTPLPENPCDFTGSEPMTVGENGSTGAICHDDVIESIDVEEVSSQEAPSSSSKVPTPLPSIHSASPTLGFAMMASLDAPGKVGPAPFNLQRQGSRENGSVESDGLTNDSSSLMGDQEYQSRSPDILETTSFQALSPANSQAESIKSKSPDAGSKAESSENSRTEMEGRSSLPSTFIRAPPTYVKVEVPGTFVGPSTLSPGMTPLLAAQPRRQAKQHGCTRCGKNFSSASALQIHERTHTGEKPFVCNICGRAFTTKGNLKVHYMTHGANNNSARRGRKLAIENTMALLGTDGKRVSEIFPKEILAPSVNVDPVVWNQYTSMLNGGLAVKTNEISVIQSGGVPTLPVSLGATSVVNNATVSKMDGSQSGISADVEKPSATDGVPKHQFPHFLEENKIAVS
Notes: 8-mer, flanks averaged, mean of replicates
Oligonucleotide	E-score
GTGCGATA	0.101
GAATATCC	0.16
GTCTACTA	0.153
AATTTTAC	0.287
ACGCCTGG	-0.265
GATCATCC	-0.156
AGGGTGTG	-0.198
ACCATTGC	0.0911
CAACAAGC	0.0139
GAAGAAGA	0.0578
ATCGAAAA	0.295
AGTGATTA	0.172
CTTCCCCA	-0.202
ATTACGTC	0.16
ATAGAAAA	0.203
ATACGTTG	0.0762
ATACCTCA	0.149
CATTTGAA	0.147
AATAGAAG	0.151
CTCGGGTA	-0.099
GGGCACTA	-0.145
AGACCGCA	-0.133
GAAAGAAA	0.229
CTCAAAGA	-0.0593
CCCTCGCG	-0.291

Block 5 — target: CREB5, bZIP domain (human); technique: DHFR protein complementation; matrix: yeast; baseline: wild-type JUN-FOS pair; direction: higher = stronger binding
Notes: single substitutions, most at no-binding floor
Parent: JUN, bZIP domain (human); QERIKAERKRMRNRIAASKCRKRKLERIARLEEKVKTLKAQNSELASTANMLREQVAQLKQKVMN; partner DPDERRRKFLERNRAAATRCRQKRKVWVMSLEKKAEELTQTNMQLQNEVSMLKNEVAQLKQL
Change	binding fitness [natural log]
Q55E	-0.25
M51S	-0.262
L59S	-1.46
L31D	-1.31
K34M	-0.435
R30L	-0.183
A40C	-0.501
V35Q	-1.28
L59R	-1.38
E33S	-0.517
L31K	-1.28
K39L	-0.372
R53G	-1.28
R53T	-1.11
K34R	-0.169
V56L	-0.375
S47Q	-0.176
R30Y	-0.273
L45I	-1.1
N42K	-0.758
K36I	-0.482
E54P	-1.38
A46H	-0.448
E33N	-0.463
S43K	-0.117

Mixed results
Molecule	target	assay	system	setting	scale	measurement	result
PhoQ, residues 284 288 289 292 302 303 SSLVEF	PhoP, residues 12 14 15 18 19 AQCLL (Escherichia coli, UniProt P23836)	Sort-seq, item: YFP reporter	E. coli	PhoQ-PhoP variant library, with: 10 µM Mg2+	baseline: high Mg2+ state, higher = stronger signaling	fold induction	2.35

Repeated from above (block 5):
Change	binding fitness [natural log]
R53T	-1.11
K34R	-0.169
V56L	-0.375
S47Q	-0.176
R30Y	-0.273
L45I	-1.1
N42K	-0.758
K36I	-0.482
E54P	-1.38
A46H	-0.448
E33N	-0.463
